{"data": "Experimental data from different studies", "note": "Each numbered part is a random draw from the data of one study; scales do not carry over between parts. Values joined by “and” are separate records of one study, mostly repeats; a detail may differ. pIC50: −log10 of the molar value.", "chain of UniProt P06870 (whole entry, looked up)": "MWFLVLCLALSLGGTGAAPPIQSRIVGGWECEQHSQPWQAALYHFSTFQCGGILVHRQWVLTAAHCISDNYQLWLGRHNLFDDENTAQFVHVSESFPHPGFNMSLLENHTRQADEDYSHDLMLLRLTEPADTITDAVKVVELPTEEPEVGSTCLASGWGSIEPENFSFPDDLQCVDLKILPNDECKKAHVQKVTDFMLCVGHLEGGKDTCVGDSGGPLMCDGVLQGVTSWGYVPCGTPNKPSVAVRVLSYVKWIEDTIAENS", "chain of UniProt P20231 (whole entry, looked up)": "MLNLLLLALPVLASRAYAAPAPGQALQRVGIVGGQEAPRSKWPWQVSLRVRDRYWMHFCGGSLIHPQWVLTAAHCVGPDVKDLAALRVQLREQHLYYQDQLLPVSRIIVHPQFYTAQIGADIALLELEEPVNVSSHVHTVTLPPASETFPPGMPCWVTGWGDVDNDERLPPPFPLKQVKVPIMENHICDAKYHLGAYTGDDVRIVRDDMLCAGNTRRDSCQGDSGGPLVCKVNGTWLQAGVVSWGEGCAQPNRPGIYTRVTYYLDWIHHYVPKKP", "chain of UniProt P03952 (whole entry, looked up)": "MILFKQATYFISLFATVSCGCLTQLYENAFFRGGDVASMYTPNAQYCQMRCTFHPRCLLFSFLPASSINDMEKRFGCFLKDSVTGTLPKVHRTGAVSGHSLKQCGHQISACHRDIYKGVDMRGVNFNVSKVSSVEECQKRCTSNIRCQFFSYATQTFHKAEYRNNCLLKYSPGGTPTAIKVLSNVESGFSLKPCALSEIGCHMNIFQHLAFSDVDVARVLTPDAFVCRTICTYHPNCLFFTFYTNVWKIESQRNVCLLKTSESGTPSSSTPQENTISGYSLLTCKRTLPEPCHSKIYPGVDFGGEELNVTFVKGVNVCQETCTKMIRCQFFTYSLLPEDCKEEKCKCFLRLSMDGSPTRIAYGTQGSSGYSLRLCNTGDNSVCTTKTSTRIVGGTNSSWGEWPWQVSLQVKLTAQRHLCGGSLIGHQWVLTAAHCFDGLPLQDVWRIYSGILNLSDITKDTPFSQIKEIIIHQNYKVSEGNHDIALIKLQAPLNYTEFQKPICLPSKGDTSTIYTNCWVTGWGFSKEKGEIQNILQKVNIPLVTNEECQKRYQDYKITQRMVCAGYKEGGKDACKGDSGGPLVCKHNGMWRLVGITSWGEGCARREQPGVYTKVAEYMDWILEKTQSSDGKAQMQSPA", "chain of UniProt Q9UKR3 (whole entry, looked up)": "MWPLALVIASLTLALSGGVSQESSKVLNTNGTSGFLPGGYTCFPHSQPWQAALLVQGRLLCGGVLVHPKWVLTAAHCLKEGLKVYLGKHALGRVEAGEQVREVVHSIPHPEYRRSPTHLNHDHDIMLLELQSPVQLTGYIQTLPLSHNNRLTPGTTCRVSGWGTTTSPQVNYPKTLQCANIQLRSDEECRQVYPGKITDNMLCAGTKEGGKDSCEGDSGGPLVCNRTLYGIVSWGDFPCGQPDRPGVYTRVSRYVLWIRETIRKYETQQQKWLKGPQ", "chain of UniProt Q9UKR0 (whole entry, looked up)": "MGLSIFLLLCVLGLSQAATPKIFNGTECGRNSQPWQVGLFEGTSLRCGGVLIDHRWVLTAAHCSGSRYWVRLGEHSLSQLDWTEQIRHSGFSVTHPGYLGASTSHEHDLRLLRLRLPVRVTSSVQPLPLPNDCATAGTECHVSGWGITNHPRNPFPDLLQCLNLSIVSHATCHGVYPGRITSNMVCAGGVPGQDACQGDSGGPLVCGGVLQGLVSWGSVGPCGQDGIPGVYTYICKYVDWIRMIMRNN", "chain of UniProt P08709 (whole entry, looked up)": "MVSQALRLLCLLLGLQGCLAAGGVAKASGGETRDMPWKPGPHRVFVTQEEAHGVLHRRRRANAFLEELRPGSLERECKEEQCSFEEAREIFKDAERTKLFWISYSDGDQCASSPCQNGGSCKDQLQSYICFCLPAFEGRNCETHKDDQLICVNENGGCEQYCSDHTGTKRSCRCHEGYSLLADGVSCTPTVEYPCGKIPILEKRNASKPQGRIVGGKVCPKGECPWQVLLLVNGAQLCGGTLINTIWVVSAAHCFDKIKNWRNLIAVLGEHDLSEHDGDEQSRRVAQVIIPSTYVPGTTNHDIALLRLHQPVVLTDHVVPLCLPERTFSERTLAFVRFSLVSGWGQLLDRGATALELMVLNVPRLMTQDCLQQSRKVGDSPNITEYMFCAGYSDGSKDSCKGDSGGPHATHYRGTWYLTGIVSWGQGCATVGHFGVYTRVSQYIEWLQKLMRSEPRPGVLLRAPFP", "chain of UniProt Q9P0G3 (whole entry, looked up)": "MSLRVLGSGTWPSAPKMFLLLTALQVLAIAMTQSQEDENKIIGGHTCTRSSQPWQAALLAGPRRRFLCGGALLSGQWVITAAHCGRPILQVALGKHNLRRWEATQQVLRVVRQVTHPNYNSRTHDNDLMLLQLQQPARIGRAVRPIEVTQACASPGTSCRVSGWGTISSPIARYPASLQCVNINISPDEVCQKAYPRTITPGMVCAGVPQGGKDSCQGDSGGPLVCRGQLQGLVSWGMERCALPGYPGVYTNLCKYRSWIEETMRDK"}
{"data": "Study 1", "target": "Leukocyte tyrosine kinase receptor (LTK, Homo sapiens, UniProt P29376)", "effect on": "enzyme activity", "mode": "inhibitor", "technique": "radiometric", "tested at": "0.5 µM", "chain of UniProt P29376 (whole entry, looked up)": "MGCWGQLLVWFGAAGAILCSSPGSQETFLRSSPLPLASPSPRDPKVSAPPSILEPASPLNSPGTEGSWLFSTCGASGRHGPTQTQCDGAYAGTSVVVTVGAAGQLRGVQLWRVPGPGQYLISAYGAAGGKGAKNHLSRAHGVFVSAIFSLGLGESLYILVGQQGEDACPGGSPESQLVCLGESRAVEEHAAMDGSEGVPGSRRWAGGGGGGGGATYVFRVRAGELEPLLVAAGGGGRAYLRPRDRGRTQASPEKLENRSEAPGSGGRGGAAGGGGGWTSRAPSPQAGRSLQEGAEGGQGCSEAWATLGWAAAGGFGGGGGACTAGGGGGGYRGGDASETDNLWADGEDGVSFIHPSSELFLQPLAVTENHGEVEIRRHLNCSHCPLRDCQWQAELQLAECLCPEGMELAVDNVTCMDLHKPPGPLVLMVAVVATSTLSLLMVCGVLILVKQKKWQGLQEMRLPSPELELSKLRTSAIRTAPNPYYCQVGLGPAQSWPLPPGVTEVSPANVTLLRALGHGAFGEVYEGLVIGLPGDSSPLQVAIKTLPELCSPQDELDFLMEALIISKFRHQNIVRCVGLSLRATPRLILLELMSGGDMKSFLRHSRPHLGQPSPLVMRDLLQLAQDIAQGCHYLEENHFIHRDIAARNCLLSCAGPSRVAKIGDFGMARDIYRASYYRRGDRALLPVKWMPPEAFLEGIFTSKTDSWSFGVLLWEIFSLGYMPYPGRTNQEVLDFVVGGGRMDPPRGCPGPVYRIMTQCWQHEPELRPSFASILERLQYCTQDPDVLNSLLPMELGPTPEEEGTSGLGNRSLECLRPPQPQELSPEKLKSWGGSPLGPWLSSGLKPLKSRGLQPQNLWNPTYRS"}
{"Structure (SMILES)": "N#C/C(=C(/N)SC1C=CC=CC1)c1cccc(C(O)c2ccncc2)c1 (stereo not drawn)", "remaining activity [%]": 92.8}
{"Structure (SMILES)": "O=C1c2ccccc2-c2nc3nnnn3nc21", "remaining activity [%]": 177}
{"Structure (SMILES)": "O=C1NC(=O)/C(=C/c2ccc3c(c2)OC(F)(F)O3)S1", "remaining activity [%]": 95.5}
{"Structure (SMILES)": "c1cc(-c2cnn3cc(-c4ccc(OCCN5CCCCC5)cc4)cnc23)ccn1", "remaining activity [%]": 95.4}
{"Structure (SMILES)": "C[C@@H](N)[C@H]1CC[C@H](C(=O)Nc2ccncc2)CC1", "remaining activity [%]": 90.7}
{"Structure (SMILES)": "CCN(CC)CCCCN1c2ccccc2Oc2ccc(Cl)cc21", "remaining activity [%]": 98.4}
{"Structure (SMILES)": "COc1cc2c(N3CCN(C(=O)Nc4ccc(OC(C)C)cc4)CC3)ncnc2cc1OCCCN1CCCCC1", "remaining activity [%]": 101}
{"Structure (SMILES)": "CC(C)n1cnc2c(Nc3cccc(Cl)c3)nc(NCCO)nc21", "remaining activity [%]": 85.3}
{"Structure (SMILES)": "Clc1ccc(Nc2nnc(Cc3ccncc3)c3ccccc23)cc1", "remaining activity [%]": 105}
{"Structure (SMILES)": "CNc1cc2c(Nc3cccc(Br)c3)ncnc2cn1", "remaining activity [%]": 76.2}
{"Structure (SMILES)": "NC(=O)c1ccc(-c2nc(-c3ccc4c(c3)OCCO4)c(-c3ccccn3)[nH]2)cc1", "remaining activity [%]": 93.5}
{"Structure (SMILES)": "O=c1c(-c2ccc(F)cc2)c(-c2ccncc2)[nH]n1-c1ccc(Cl)cc1", "remaining activity [%]": 75.5}
{"Structure (SMILES)": "CC(C)(C)c1nc2c3cc[nH]c(=O)c3c3cc(F)ccc3c2[nH]1", "remaining activity [%]": 20.6}
{"Structure (SMILES)": "CC(C)N(CCC(=O)c1ccc2ccccc2c1)Cc1ccccc1", "remaining activity [%]": 103}
{"Structure (SMILES)": "O=C(O)/C=C/c1cc(Br)c(Br)c(Br)c1Br", "remaining activity [%]": 94.5}
{"Structure (SMILES)": "Nc1nc(Nc2ccc(S(N)(=O)=O)cc2)nn1C(=S)Nc1c(F)cccc1F", "remaining activity [%]": 27.6}
{"Structure (SMILES)": "O=Nc1c(-c2c(O)[nH]c3ccccc23)[nH]c2ccccc12", "remaining activity [%]": 62.3}
{"Structure (SMILES)": "NC(=O)c1cccc(-c2cc(Nc3ccc(OC(F)(F)F)cc3)ncn2)c1", "remaining activity [%]": 111}
{"Structure (SMILES)": "N#CC(c1ccnc(NCCc2cccnc2)n1)c1nc2ccccc2s1 (stereo not drawn)", "remaining activity [%]": 83.1}
{"Structure (SMILES)": "O=C(c1ccccc1)c1ccc(N2CCOCC2)cc1O", "remaining activity [%]": 107}
{"Structure (SMILES)": "CCCCc1c(-c2ccc(O)cc2)[nH]c2nccnc12", "remaining activity [%]": 84.1}
{"Structure (SMILES)": "COc1cc2c(Nc3ccc(Br)cc3F)ncnc2cc1OCC1CCN(C)CC1", "remaining activity [%]": 64.6}
{"Structure (SMILES)": "FC(F)(F)c1ccc(/C=C/c2nc(COc3ccc(CCCCn4ccnn4)cc3)co2)cc1", "remaining activity [%]": 104}
{"data": "Study 2", "cell line": "HEK-293T/ACE2", "technique": "Hoechst nuclei count", "tested at": "concentration not given", "time": "16 (unit not given)", "reference": "vehicle"}
{"SMILES": "O=C(NC1CCN(CCCCC2(C(=O)NCC(F)(F)F)c3ccccc3-c3ccccc32)CC1)c1ccccc1-c1ccc(C(F)(F)F)cc1", "viability [%]": 61.3}
{"SMILES": "CCn1cc(C(=O)O)c(=O)c2cc(F)c(N3CCNCC3)nc21", "viability [%]": 101}
{"SMILES": "Cc1ccccc1C(=O)Nc1ccc(C(=O)N2CCCC(O)c3cc(Cl)ccc32)c(C)c1 (stereo not drawn)", "viability [%]": 102}
{"SMILES": "CC(=O)c1ccc2c(c1)N(CCCN1CCC(CCO)CC1)c1ccccc1S2", "viability [%]": 102}
{"SMILES": "CC(=O)Nc1cccc(-n2c(=O)n(C3CC3)c(=O)c3c(Nc4ccc(I)cc4F)n(C)c(=O)c(C)c32)c1", "viability [%]": 99.2}
{"SMILES": "N=C(N)N/N=C/c1c(Cl)cccc1Cl", "viability [%]": 98.2}
{"SMILES": "CNNCc1ccc(C(=O)NC(C)C)cc1", "viability [%]": 98}
{"SMILES": "CCCCN(CCCC)CC(O)c1cc(Cl)cc2c1-c1ccc(Cl)cc1/C2=C/c1ccc(Cl)cc1 (stereo not drawn)", "viability [%]": 100}
{"SMILES": "COc1c(C)c2c(c(O)c1C/C=C(\\C)CCC(=O)O)C(=O)OC2", "viability [%]": 93}
{"SMILES": "N=C1CCCN1Cc1[nH]c(=O)[nH]c(=O)c1Cl", "viability [%]": 106}
{"SMILES": "CCCCCCCCCCCCCCCC[N+](C)(C)CCN(Cc1ccc(OC)cc1)c1ncccn1", "viability [%]": 97.8}
{"SMILES": "CN(C)[C@@H]1C(O)=C(C(N)=O)C(=O)[C@@]2(O)C(O)=C3C(=O)c4c(O)ccc(Cl)c4[C@@H](O)[C@H]3C[C@@H]12", "viability [%]": 100}
{"SMILES": "C[C@]12Cc3c[nH]nc3C[C@@H]1CC[C@@H]1[C@@H]2CC[C@@]2(C)[C@H]1CC[C@]2(C)O", "viability [%]": 99.9}
{"SMILES": "CN1CCC(=C2c3ccccc3CCn3c(C=O)cnc32)CC1", "viability [%]": 106}
{"SMILES": "CC(=O)OCC(=O)[C@@]1(O)CC[C@H]2[C@@H]3CCC4=CC(=O)CC[C@]4(C)[C@@]3(F)[C@@H](O)C[C@@]21C", "viability [%]": 107}
{"data": "Study 3", "Structure (SMILES)": "N=C(N)c1ccc2cc(OC(=O)c3ccc(N=C(N)N)cc3)ccc2c1"}
{"target": "Kallikrein-1 (KLK1, Homo sapiens, UniProt P06870)", "pIC50": 5.62}
{"target": "Kallikrein-12 (Homo sapiens, UniProt Q9UKR0)", "pIC50": 6.44}
{"target": "Tryptase beta-2 (TPSB2, Homo sapiens, UniProt P20231)", "pIC50": "> 9.29"}
{"target": "Coagulation factor VII (F7, Homo sapiens, UniProt P08709)", "pIC50": 6.56}
{"target": "Kallikrein-14 (Homo sapiens, UniProt Q9P0G3)", "pIC50": 8.67}
{"target": "Kallikrein-13 (Homo sapiens, UniProt Q9UKR3)", "pIC50": 6.52}
{"target": "Prothrombin (F2, Homo sapiens, UniProt P00734)", "pIC50": 6.52}
{"target": "Plasma kallikrein (KLKB1, Homo sapiens, UniProt P03952)", "pIC50": "> 9.29"}
{"data": "Other studies, line by line", "species": "C57BL/6 CES1-/- mouse", "route": "intravenous", "dose": "1 mg/kg"}
{"SMILES": "[N-]=[N+]=CC(=O)CC[C@H](N)C(=O)O", "mean corpuscular volume": "41.8 fL and 43.7 fL and 44.4 fL"}
{"SMILES": "CC(=O)N[C@@H](Cc1c[nH]c2ccccc12)C(=O)N[C@@H](CCC(=O)C=[N+]=[N-])C(=O)OC(C)C", "mean corpuscular volume": "45.2 fL and 45.5 fL and 47 fL"}
{"note": "Repeated from above (study 1):"}
{"Structure (SMILES)": "O=c1c(-c2ccc(F)cc2)c(-c2ccncc2)[nH]n1-c1ccc(Cl)cc1", "remaining activity [%]": 75.5}
{"Structure (SMILES)": "O=C1c2ccccc2-c2nc3nnnn3nc21", "remaining activity [%]": 177}
{"Structure (SMILES)": "N#C/C(=C(/N)SC1C=CC=CC1)c1cccc(C(O)c2ccncc2)c1 (stereo not drawn)", "remaining activity [%]": 92.8}
{"Structure (SMILES)": "CC(C)(C)c1nc2c3cc[nH]c(=O)c3c3cc(F)ccc3c2[nH]1", "remaining activity [%]": 20.6}
{"Structure (SMILES)": "Clc1ccc(Nc2nnc(Cc3ccncc3)c3ccccc23)cc1", "remaining activity [%]": 105}
{"Structure (SMILES)": "O=Nc1c(-c2c(O)[nH]c3ccccc23)[nH]c2ccccc12", "remaining activity [%]": 62.3}
{"Structure (SMILES)": "O=C(O)/C=C/c1cc(Br)c(Br)c(Br)c1Br", "remaining activity [%]": 94.5}
{"Structure (SMILES)": "C[C@@H](N)[C@H]1CC[C@H](C(=O)Nc2ccncc2)CC1", "remaining activity [%]": 90.7}
